Published values gathered from unrelated publications.
Each numbered part is a random draw from the data of one study; scales do not carry over between parts. Substitutions count along the parent as printed.
Chain of UniProt Q9XFM0 (whole entry, looked up): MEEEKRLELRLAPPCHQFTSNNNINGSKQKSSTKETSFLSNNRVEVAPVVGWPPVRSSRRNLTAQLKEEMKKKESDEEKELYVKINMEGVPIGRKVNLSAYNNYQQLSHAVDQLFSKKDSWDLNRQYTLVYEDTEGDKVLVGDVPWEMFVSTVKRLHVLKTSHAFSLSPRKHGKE
Chain of UniProt O23661 (whole entry, looked up): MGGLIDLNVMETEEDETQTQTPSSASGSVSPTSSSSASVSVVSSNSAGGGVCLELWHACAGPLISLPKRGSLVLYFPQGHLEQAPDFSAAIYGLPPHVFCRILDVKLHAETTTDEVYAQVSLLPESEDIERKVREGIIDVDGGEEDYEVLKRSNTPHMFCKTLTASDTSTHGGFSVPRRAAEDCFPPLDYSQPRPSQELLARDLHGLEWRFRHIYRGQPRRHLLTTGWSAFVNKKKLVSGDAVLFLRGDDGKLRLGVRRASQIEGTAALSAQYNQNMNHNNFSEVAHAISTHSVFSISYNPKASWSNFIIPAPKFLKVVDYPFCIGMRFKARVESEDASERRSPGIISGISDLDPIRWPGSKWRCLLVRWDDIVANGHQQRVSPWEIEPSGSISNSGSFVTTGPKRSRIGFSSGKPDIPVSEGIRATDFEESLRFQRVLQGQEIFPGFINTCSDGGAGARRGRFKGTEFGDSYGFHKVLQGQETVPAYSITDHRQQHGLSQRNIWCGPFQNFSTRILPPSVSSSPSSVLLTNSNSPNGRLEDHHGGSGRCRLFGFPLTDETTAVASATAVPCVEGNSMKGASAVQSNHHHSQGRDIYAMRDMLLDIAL
Chain of UniProt O24408 (whole entry, looked up): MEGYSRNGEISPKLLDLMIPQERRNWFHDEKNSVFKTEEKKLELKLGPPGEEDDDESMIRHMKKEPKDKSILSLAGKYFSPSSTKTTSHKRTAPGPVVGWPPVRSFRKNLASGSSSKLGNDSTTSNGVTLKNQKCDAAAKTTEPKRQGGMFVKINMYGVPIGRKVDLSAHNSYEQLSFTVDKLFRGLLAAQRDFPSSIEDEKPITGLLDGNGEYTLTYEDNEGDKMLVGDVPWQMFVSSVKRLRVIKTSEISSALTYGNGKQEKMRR
Chain of UniProt Q84WU6 (whole entry, looked up): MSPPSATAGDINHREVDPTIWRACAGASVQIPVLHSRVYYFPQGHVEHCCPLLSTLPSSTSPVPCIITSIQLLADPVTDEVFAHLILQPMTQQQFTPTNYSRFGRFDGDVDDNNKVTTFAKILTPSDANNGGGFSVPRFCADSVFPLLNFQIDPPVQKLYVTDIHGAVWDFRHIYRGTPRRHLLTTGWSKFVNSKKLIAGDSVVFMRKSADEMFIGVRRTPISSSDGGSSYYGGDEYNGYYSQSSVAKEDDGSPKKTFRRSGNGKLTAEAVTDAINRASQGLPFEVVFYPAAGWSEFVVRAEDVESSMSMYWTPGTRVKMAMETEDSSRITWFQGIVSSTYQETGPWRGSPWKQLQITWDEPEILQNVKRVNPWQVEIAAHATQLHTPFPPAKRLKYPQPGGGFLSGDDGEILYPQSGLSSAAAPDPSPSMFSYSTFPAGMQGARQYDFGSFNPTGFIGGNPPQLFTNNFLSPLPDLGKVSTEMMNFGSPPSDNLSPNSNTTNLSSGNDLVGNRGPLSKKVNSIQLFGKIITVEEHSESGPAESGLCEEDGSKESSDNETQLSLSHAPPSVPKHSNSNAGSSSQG
Chain of UniProt P33078 (whole entry, looked up): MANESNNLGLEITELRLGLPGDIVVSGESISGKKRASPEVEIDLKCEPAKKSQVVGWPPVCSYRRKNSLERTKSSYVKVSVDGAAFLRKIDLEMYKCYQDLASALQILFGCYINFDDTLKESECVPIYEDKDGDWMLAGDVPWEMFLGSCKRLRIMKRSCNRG
Chain of UniProt Q9FKM7 (whole entry, looked up): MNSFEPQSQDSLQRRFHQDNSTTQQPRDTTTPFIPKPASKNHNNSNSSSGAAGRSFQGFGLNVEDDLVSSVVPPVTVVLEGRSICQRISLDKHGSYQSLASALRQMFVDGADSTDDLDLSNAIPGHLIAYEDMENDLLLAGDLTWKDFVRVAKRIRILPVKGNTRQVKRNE

Series 1
Target: CRIPT, C-terminal peptide
Method: DHFR complementation, deep sequencing
Sample: yeast
Setting: single substitutions, model-inferred values
Baseline: wild type
Direction: higher = weaker binding
Parent: ERBIN, PDZ domain 1 (human); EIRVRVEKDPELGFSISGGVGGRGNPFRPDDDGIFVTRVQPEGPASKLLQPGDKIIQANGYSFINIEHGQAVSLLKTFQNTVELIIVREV; partner TKNYKQTSV
Substitution | binding free energy change [kcal/mol]
E7N | 0.0671
D32I | 0.317
D30S | 0.175
L48G | 0.233
I85L | -0.0745
F27A | 1.08
L12E | 1.47
P41T | 0.267
L84Y | 2.04
R88G | 0.584
G24T | 0.989
N80R | 0.0165
S62H | 0.0598
I56M | 0.0421
V6K | 0.918
R38S | -0.0334
F14G | 0.536
V87A | -0.0738
R5W | 0.182

Series 2
Target: ABI1, truncated, D143A, DHFR fusion (Arabidopsis thaliana)
Method: DHFR PCA, deep sequencing
Sample: yeast
Setting: methotrexate growth selection, single substitutions
Added: (+)-ABA 0 µM
Baseline: wild-type fitted maximum
Direction: higher = stronger binding
Parent: PYL1, truncated, DHFR fusion (Arabidopsis thaliana); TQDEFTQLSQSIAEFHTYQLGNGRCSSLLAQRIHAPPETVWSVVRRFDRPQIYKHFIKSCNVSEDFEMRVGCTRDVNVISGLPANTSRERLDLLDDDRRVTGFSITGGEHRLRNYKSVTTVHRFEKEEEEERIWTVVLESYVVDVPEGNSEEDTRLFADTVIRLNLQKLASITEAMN
Substitution | relative binding score [%]
E128I | -3.41
R98L | 8.97
C60P | -3.06
V76K | 3.12
L164K | 3.68
N149Q | 61
E151S | 19.5
A35C | 2.3
L169C | -5.31
N177F | 23.8
Q7K | 16
E131C | 30.6
M68C | 2.56
V78K | 2.19
G108N | -4.98
I162K | 10.1
F157A | 1.1

Series 3
Target: CCNB1, cyclin fold, Cln2 fusion (human)
Method: yeast growth competition, sequencing
Sample: yeast
Setting: strong parent motif
Baseline: not given
Direction: higher = stronger binding
Parent: MASTL docking peptide (human); PMIAKNLMCELDE
Substitution | normalised enrichment score
PMIAKNDMCELDE [L7D] | -0.286
PMIAKNLMCELGE [D12G] | 0.965
PMIAKNLMCELKE [D12K] | 0.643
PMIAKNHMCELDE [L7H] | -0.375
PMIAKNLMTELDE [C9T] | 1.7
PMIAKNQMCELDE [L7Q] | 0.0544
PMIAKRLMCELDE [N6R] | 0.473
PMIAKNLMCELAE [D12A] | 0.984
PMIAKNLMCEFDE [L11F] | 2.99
PMIAKNLMCEYDE [L11Y] | 1.6
PMIQKNLMCELDE [A4Q] | 1.28
PPIAKNLMCELDE [M2P] | 2.37
PMIAKNMMCELDE [L7M] | -0.0663
PMIARNLMCELDE [K5R] | 2.88
PMIAKNRMCELDE [L7R] | -0.09
PSIAKNLMCELDE [M2S] | 2.86
PMIAKNLWCELDE [M8W] | 0.978
PMIWKNLMCELDE [A4W] | 1.24
PMIAKILMCELDE [N6I] | 0.471
PMIALNLMCELDE [K5L] | 0.372
PLIAKNLMCELDE [M2L] | 2.2
PMIAKFLMCELDE [N6F] | -0.0462
PMIATNLMCELDE [K5T] | 0.321
PMIAKKLMCELDE [N6K] | 0.364

Series 4
Sequence: B1 (IAA3)
Method: two-hybrid
Direction: higher = firmer interaction
B1: IAA3 (Arabidopsis thaliana, UniProt Q38822); chain MDEFVNLKETELRLGLPGTDNVCEAKERVSCCNNNNKRVLSTDTEKEIESSSRKTETSPPRKAQIVGWPPVRSYRKNNIQSKKNESEHEGQGIYVKVSMDGAPYLRKIDLSCYKGYSELLKALEVMFKFSVGEYFERDGYKGSDFVPTYEDKDGDWMLIGDVPWEMFICTCKRLRIMKGSEAKGLGCGV
partner | setting | how to read | positive tests
IAA18 (Arabidopsis thaliana, UniProt O24408) | – | baseline: out of 2 tests | 2
IAA33 (Arabidopsis thaliana, UniProt Q9FKM7) | – | baseline: out of 4 tests | 1
ETT (Arabidopsis thaliana, UniProt O23661) | – | baseline: out of 4 tests | 0
IAA28 (Arabidopsis thaliana, UniProt Q9XFM0) | – | baseline: out of 2 tests | 2
IAA5 (Arabidopsis thaliana, UniProt P33078) | – | baseline: out of 4 tests | 4
ARF17 (Arabidopsis thaliana, UniProt Q84WU6) | weak activation fusion | baseline: out of 4 tests | 0

Series 5
Target: Sal-like protein 4, full length isoform A (SALL4, Homo sapiens, UniProt Q9UJQ4, residues 1-1053)
Chain of UniProt Q9UJQ4 (whole entry, looked up): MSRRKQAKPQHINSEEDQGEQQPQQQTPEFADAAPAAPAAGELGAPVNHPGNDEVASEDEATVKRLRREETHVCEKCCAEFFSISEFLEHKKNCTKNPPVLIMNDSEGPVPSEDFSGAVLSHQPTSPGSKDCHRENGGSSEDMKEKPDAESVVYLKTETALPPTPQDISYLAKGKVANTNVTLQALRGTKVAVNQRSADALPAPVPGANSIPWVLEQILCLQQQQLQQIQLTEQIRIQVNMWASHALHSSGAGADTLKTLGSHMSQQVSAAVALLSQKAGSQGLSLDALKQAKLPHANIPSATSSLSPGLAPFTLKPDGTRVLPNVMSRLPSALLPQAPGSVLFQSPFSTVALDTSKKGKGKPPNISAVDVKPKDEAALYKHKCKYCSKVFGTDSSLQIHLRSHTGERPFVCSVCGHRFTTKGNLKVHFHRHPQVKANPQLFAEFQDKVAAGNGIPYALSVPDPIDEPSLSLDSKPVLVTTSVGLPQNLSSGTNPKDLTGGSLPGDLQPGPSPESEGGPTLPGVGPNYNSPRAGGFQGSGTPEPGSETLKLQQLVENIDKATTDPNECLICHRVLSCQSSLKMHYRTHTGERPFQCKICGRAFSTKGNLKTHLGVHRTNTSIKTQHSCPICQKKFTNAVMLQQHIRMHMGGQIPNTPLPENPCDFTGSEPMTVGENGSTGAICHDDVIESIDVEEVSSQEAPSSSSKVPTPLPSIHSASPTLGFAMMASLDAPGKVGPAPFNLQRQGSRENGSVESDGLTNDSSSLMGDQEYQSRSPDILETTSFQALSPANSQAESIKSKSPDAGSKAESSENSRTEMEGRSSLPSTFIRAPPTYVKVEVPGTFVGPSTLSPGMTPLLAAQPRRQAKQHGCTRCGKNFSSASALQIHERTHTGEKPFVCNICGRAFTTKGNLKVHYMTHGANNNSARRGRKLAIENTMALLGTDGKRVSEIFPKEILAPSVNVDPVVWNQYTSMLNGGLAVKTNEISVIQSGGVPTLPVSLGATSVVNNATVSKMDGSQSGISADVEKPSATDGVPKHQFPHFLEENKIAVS
Method: universal PBM
Form: double-stranded DNA, one strand shown
Sample: in vitro
Tested at: 600 nM
Setting: 8-mer, flanks averaged, mean of replicates
Direction: higher = stronger binding
Strand | E-score
AAGTGAAC | 0.0376
CTAATAGC | 0.105
CTGCAAAC | 0.0824
GCGTCAGC | -0.246
CTCGTGTA | 0.075
GGGGTAGA | -0.12
CCTTGTCA | 0.217
GTGTTTTA | 0.225
CGAGAGTA | 0.0787
CACCACCG | -0.391
CGACAGTC | -0.26
CAGAACTC | -0.0966
GAGTCCGA | -0.00413
CACACTAG | -0.121
AAACTATA | 0.258
CTTGCCGC | -0.311
CCTTTACG | 0.0611
ACATCTCT | -0.0181
CATTTGCC | -0.253
TCGTTCAA | 0.189
ATTGCATC | 0.137
CCAATTCA | 0.149
GTGCCGCA | -0.134

Excerpt of the above (series 3):
Substitution | normalised enrichment score
PMIAKNLMCELGE [D12G] | 0.965
PMIAKNLMCELKE [D12K] | 0.643
PMIAKNHMCELDE [L7H] | -0.375
PMIAKNLMTELDE [C9T] | 1.7
PMIAKNQMCELDE [L7Q] | 0.0544
PMIAKRLMCELDE [N6R] | 0.473
PMIAKNLMCELAE [D12A] | 0.984
PMIAKNLMCEFDE [L11F] | 2.99
PMIAKNLMCEYDE [L11Y] | 1.6
PMIQKNLMCELDE [A4Q] | 1.28
PPIAKNLMCELDE [M2P] | 2.37
PMIAKNMMCELDE [L7M] | -0.0663
PMIARNLMCELDE [K5R] | 2.88
PMIAKNRMCELDE [L7R] | -0.09
